# Results gathered from unrelated publications.
# ± marks the error that the study gave.
# Cell line: PC-3
Compound,effect on,method,measured,matrix,time,IC50
Cc1c(Cc2ccccc2)c(=O)oc2c(C)c(OCC(=O)NN=Cc3ccc([N+](=O)[O-])cc3)ccc12,cytotoxicity,,,,,23100 nM
O=C1NC(=NCc2cccs2)S/C1=C\c1ccc2ncccc2c1,,MTS,,prostate cancer,,> 10000 nM
C[C@H](CCC(=O)O)[C@H]1CC[C@H]2[C@@H]3CC[C@@H]4C[C@H](O)CC[C@]4(C)[C@H]3CC[C@]12C,cell viability,MTT,,,72 h,51000 ± 600 nM
CCC(=O)N1CCC(COCC(=O)N2CCN(c3nc(-c4cnc(N)nc4C(F)F)nc(N4CCOC[C@@H]4C)n3)CC2)CC1,,western blot,phospho-PKB/Akt Ser473,,2 h,183 nM
COc1cc(C(=O)c2nc(-c3cccc4c3CCN4)c[nH]2)cc(OC)c1OC,cell proliferation,MTS,,,72 h,22.1 ± 3.3 nM
Cc1nc(NC(=O)N2CCC[C@H]2C(N)=O)sc1-c1ccnc(C(C)(C)C(F)(F)F)c1,,western blot,phospho-S6 Ser235/Ser236,,2 h,1650 nM
O=C1NCCc2[nH]c(-c3ccncc3)cc21,,MTS,,prostate cancer,,9180 nM
CCCOc1ccc2c(C)c(CC)c(=O)oc2c1C,cell viability,MTT,,,,152 µg/mL
C[C@H](Nc1ccc2c(c1)OCCn1cc(N3C(=O)OC[C@H]3C(F)F)nc1-2)C(N)=O,,western blot,phospho-PKB/Akt Ser473,,2 h,1210 nM

# Excerpt of the above:
Compound,effect on,method,measured,matrix,time,IC50
CCC(=O)N1CCC(COCC(=O)N2CCN(c3nc(-c4cnc(N)nc4C(F)F)nc(N4CCOC[C@@H]4C)n3)CC2)CC1,,western blot,phospho-PKB/Akt Ser473,,2 h,183 nM
